Assay results pooled from the literature.
Numbered parts are unrelated; each lists some results of a single study.

Sample 1 — technique: RNAcompete; form: RNA; matrix: in vitro; tested at: 20 nM; setting: 7-mer, probes averaged, single round; baseline: mean of 7-mers; direction: higher = stronger binding
Target: PABPC1L2, full length, GST fusion (mouse, UniProt A0ABA7IW68)
Residues (chain): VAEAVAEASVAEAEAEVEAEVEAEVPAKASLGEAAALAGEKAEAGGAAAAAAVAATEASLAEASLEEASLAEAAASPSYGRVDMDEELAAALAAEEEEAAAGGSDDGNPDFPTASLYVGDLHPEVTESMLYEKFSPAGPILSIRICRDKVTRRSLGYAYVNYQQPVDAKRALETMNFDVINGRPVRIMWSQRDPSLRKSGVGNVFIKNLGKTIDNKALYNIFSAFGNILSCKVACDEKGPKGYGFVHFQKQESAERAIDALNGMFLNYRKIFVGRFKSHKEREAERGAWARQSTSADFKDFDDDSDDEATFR
For `GCUACGA`, the 7-mer Z-score was -0.11.
`CAACGGU` gave a 7-mer Z-score of -0.0047.
For `CCGAUUU`, the 7-mer Z-score was -0.146.

Sample 2 — technique: protein binding microarray; form: double-stranded DNA, one strand shown; matrix: in vitro; tested at: not given; baseline: not given; direction: higher = stronger binding
Target: Histone acetyltransferase KAT6A, winged helix 2, GST fusion (KAT6A, Homo sapiens, UniProt Q92794, residues 85-181)
Setting: 8-mer, flanks averaged, mean of 2 arrays, mostly near background
Construct (chain): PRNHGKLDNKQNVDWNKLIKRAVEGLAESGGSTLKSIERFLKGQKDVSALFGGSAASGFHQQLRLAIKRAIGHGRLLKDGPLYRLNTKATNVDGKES
`TGGAAACA` gave an E-score of -0.0767.
`GATATTCC` gave an E-score of 0.0921.
`GGCTGTCA` has an E-score of 0.0212.

Sample 3 — technique: aptamer microarray, sandwich; form: DNA with 2'F-ANA; matrix: in vitro; tested at: 200 nM; added: Cy3 exosite-II aptamer, 400 nM; direction: higher = stronger binding
Target: Prothrombin, mature alpha-thrombin (F2, Homo sapiens, UniProt P00734)
Setting: whole 15-mer aptamer, many near background
Under “mean fluorescence intensity”, `GGTTGGTGTGGTTGG (2'F-ANA at 1 2 3 4 6 7 8 12 13 14 15)` is recorded as 99.2 a.u.
For `GGTTGGTGTGGTTGG (2'F-ANA at 2 3 4 5 8 11 12 13 14 15)`, “mean fluorescence intensity” read 57.8 a.u.
Under “mean fluorescence intensity”, `GGTTGGTGTGGTTGG (2'F-ANA at 3 4 5 6 7 9 10 11 12 14)` is recorded as 52 a.u.

Other studies, line by line
For `PhoQ, residues 284 288 289 292 302 303 SNGLAW`, the fold induction was 9.97 (PhoP, residues 12 14 15 18 19 IQSYL (Escherichia coli, UniProt P23836); Sort-seq, measured: YFP reporter; E. coli; PhoQ-PhoP variant library, added: 10 µM Mg2+; baseline: high Mg2+ state, higher = stronger signaling).

For quick reference, copied from above (sample 3):
Under “mean fluorescence intensity”, `GGTTGGTGTGGTTGG (2'F-ANA at 3 4 5 6 7 9 10 11 12 14)` is recorded as 52 a.u.
Under “mean fluorescence intensity”, `GGTTGGTGTGGTTGG (2'F-ANA at 1 2 3 4 6 7 8 12 13 14 15)` is recorded as 99.2 a.u.
